{"data": "Experimental data from different studies", "note": "Every numbered part comes from another study and shows a few of its results, in no order. “And” joins repeats or separate records; there may be more than shown.", "sequence of UniProt Q9BQI3 (whole entry, looked up)": "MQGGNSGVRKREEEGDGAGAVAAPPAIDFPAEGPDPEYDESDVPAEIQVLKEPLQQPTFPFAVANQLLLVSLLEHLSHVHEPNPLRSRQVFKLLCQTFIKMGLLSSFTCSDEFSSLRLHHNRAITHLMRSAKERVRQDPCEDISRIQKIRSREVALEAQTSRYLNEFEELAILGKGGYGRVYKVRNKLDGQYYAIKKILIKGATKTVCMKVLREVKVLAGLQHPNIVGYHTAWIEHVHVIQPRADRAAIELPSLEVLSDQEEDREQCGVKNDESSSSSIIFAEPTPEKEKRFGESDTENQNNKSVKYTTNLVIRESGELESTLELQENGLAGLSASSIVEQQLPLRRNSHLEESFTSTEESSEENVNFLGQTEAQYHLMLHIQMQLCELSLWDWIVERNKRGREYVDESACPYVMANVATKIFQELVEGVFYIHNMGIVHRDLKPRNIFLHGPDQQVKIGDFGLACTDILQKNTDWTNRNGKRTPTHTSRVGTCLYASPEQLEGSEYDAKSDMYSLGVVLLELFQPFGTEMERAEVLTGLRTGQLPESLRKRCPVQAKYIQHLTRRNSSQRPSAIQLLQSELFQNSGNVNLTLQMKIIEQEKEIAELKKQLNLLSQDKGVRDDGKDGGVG", "sequence of UniProt Q92630 (whole entry, looked up)": "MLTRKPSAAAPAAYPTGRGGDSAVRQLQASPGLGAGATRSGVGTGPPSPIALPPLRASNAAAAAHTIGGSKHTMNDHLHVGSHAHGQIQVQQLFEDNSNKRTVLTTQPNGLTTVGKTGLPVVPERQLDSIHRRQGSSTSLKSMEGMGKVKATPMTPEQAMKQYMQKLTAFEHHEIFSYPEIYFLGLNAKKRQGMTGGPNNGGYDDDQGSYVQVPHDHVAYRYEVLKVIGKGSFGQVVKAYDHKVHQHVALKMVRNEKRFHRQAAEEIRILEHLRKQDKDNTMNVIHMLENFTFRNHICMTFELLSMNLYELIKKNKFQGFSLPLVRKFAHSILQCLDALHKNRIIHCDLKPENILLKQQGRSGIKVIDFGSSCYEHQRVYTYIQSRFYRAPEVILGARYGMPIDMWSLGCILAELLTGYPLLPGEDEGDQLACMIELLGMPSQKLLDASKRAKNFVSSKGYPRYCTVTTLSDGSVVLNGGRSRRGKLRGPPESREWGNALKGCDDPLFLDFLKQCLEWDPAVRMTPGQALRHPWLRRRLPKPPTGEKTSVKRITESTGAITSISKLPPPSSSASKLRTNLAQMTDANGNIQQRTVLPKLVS", "sequence of UniProt Q9UK32 (whole entry, looked up)": "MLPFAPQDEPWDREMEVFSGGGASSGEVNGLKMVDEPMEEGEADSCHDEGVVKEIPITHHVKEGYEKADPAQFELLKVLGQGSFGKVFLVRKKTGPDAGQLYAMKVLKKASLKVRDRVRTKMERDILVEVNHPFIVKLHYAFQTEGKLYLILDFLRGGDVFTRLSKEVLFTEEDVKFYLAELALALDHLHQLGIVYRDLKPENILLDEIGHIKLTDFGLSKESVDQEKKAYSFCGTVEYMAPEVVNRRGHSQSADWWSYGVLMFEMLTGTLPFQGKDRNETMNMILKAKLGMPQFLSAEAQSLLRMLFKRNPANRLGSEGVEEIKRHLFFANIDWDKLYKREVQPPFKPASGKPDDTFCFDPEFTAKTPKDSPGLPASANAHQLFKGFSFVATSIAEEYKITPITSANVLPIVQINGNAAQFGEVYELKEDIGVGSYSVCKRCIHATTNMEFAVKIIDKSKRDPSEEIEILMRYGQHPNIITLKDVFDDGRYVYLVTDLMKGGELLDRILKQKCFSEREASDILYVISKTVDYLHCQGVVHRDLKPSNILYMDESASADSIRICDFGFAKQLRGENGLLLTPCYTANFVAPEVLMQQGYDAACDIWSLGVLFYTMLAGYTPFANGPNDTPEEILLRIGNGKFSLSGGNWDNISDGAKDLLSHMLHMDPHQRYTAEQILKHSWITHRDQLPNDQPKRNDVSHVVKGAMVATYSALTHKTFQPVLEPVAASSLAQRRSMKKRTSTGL", "sequence of UniProt Q9NY57 (whole entry, looked up)": "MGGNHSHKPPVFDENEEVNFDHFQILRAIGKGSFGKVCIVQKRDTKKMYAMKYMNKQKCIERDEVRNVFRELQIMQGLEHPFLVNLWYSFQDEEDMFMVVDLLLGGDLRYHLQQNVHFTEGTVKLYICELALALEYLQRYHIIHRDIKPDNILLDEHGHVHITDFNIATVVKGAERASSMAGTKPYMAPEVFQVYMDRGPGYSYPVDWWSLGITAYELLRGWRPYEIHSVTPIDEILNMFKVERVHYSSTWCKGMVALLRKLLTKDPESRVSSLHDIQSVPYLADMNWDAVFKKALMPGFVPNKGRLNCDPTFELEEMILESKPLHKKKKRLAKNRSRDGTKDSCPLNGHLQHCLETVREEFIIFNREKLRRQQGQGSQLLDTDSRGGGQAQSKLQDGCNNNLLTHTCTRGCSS", "sequence of UniProt P41743 (whole entry, looked up)": "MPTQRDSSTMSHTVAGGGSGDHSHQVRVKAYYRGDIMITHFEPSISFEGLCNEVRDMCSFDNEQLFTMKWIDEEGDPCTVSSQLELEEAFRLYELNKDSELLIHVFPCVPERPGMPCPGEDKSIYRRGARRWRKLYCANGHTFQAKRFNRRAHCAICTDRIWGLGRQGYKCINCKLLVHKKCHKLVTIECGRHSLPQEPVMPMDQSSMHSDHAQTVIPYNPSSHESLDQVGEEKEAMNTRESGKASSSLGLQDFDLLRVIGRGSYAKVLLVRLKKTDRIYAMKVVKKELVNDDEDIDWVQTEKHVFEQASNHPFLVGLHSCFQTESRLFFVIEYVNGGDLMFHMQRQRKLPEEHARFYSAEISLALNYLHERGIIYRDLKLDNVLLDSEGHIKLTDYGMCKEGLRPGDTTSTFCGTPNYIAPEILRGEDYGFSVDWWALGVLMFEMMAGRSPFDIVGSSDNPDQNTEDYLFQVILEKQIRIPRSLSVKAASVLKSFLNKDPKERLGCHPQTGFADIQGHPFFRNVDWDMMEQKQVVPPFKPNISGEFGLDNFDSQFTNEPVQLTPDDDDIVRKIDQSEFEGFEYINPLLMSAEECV"}
{"data": "Sample 1", "target": "Myosin light chain kinase, smooth muscle (MYLK, Homo sapiens, UniProt Q15746)", "observed": "enzyme activity", "mode": "inhibitor", "concentration": "0.5 µM", "relative to": "control", "sequence of UniProt Q15746 (whole entry, looked up)": "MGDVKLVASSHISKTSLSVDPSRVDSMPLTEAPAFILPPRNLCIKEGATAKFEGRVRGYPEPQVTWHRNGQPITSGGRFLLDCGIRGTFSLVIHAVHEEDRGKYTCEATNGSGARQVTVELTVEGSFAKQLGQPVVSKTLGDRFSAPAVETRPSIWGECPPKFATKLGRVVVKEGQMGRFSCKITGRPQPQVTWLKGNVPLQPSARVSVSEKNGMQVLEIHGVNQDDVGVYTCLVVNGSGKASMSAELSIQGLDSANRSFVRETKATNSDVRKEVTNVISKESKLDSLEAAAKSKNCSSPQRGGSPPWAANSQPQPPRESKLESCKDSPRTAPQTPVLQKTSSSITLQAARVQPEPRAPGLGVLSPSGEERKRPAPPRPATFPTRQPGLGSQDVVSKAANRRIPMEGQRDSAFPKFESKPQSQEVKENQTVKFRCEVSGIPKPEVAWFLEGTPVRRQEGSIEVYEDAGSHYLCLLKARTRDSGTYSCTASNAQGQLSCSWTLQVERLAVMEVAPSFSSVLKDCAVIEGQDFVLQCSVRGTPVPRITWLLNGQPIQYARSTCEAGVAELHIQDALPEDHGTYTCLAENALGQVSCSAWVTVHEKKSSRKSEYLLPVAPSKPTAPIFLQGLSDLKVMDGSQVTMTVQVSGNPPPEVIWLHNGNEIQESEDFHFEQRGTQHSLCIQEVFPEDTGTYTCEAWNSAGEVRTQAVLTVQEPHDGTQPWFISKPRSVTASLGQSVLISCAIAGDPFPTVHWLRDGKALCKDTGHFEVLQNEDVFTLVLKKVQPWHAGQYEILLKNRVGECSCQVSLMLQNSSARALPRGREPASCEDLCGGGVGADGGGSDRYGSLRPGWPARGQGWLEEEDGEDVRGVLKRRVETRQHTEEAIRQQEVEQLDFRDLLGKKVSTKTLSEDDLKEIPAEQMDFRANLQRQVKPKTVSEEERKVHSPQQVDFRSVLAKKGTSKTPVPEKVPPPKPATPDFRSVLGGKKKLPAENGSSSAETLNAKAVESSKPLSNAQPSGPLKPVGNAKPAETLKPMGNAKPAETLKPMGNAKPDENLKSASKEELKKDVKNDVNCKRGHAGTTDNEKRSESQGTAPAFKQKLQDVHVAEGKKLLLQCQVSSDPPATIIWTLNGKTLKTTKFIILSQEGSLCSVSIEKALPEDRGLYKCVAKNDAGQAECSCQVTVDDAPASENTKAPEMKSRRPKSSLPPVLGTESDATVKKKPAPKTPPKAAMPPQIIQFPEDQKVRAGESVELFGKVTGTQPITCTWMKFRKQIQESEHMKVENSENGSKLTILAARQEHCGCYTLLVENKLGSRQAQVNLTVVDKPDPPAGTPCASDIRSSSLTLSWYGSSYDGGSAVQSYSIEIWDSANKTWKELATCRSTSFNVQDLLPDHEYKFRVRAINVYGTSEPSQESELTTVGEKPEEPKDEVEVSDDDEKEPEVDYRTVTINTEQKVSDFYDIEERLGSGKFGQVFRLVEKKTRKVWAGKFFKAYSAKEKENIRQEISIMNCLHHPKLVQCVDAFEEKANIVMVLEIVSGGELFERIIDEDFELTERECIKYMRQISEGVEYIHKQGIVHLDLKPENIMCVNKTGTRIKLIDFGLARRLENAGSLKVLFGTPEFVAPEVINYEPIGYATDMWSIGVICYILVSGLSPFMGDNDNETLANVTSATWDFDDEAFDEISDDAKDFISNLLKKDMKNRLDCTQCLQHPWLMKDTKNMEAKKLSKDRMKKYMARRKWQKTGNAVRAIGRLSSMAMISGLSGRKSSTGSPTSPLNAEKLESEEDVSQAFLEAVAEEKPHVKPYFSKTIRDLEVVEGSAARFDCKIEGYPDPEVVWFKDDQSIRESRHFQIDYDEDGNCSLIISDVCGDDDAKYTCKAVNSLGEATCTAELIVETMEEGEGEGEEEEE"}
{"SMILES": "CS(=O)(=O)CCNCc1ccc(-c2ccc3ncnc(Nc4ccc(OCc5cccc(F)c5)c(Cl)c4)c3c2)o1", "remaining activity [%]": 90.7}
{"SMILES": "COc1cc2ncc(-c3ccccc3)nc2cc1OC", "remaining activity [%]": 97.4}
{"SMILES": "CCN1/C(=C/C(C)=O)Sc2ccc(OC)cc21", "remaining activity [%]": 93.7}
{"SMILES": "COc1cc2ncnc(Nc3ccc(OCc4ccccc4)cc3)c2cc1OC", "remaining activity [%]": 95}
{"SMILES": "Nc1[nH]nc2nnc(-c3c(-c4ccccc4)nn4ccccc34)cc12", "remaining activity [%]": 98.3}
{"SMILES": "CC(C)[C@H](CO)Nc1nc(Nc2cccc(Cl)c2)c2ncn(C(C)C)c2n1", "remaining activity [%]": 95.1}
{"SMILES": "CN(C)CCCn1cc(C2=C(c3c[nH]c4ccccc34)C(=O)NC2=O)c2ccccc21", "remaining activity [%]": 23.2}
{"SMILES": "CC(C)c1nn(-c2c(Cl)cccc2Cl)c2nc(Cc3ccc(OCCO)cc3)[nH]c(=O)c12", "remaining activity [%]": 98.3}
{"SMILES": "CCC(=O)Nc1ccc2ncnc(Nc3cccc(Br)c3)c2c1", "remaining activity [%]": 95.5}
{"SMILES": "CCOc1cc2ncnc(Nc3cccc(Br)c3)c2cc1OCC", "remaining activity [%]": 89.4}
{"SMILES": "Cn1cc(/C=C2\\C(=O)Nc3ccc(S(N)(=O)=O)cc32)c2ccccc21", "remaining activity [%]": 95}
{"SMILES": "O=c1cc(N2CCOCC2)oc2c1ccc1ccccc12", "remaining activity [%]": 92.3}
{"SMILES": "CC(=O)O/N=C1/C(c2c(O)[nH]c3cc(Br)ccc23)=Nc2ccccc21", "remaining activity [%]": 74.2}
{"SMILES": "COc1ccc(Cl)cc1NC(=O)Nc1cc(C)nc2ccccc12", "remaining activity [%]": 95.7}
{"SMILES": "Cn1cnc2cc3c(Nc4cccc(Br)c4)ncnc3cc21", "remaining activity [%]": 83.3}
{"SMILES": "COc1ccc(-c2cnc3c(-c4ccsc4)cnn3c2)cc1", "remaining activity [%]": 102}
{"SMILES": "O=C1NC(=O)/C(=C/c2ccc3nccnc3c2)S1", "remaining activity [%]": 97.1}
{"SMILES": "O=C(Nc1ccc(Cl)cc1)c1ccccc1NCc1ccncc1", "remaining activity [%]": 105}
{"SMILES": "Cc1nc(Nc2ncc(C(=O)Nc3c(C)cccc3Cl)s2)cc(N2CCN(CCO)CC2)n1", "remaining activity [%]": 92.3}
{"SMILES": "COc1cc2ncnc(N3CCN(C(=O)Nc4ccc(Oc5ccccc5)cc4)CC3)c2cc1OC", "remaining activity [%]": 101}
{"data": "Sample 2", "Structure (SMILES)": "CN(C)C(=O)Cn1cc(-c2nc([C@@](C)(c3ccc(-c4cnc(N)nc4)cc3)C3CC3)no2)cn1", "observed": "cell-free assay", "technique": "competition with immobilised ligand", "concentration": "1 µM"}
{"target": "Serine/threonine-protein kinase PLK4 (PLK4, Homo sapiens, UniProt O00444)", "remaining binding [%]": 74}
{"target": "Insulin receptor (INSR, Homo sapiens, UniProt P06213)", "remaining binding [%]": 89}
{"target": "Ribosomal protein S6 kinase alpha-6, N-terminal kinase domain (RPS6KA6, Homo sapiens, UniProt Q9UK32)", "remaining binding [%]": 96}
{"target": "Dual specificity tyrosine-phosphorylation-regulated kinase 2 (DYRK2, Homo sapiens, UniProt Q92630)", "remaining binding [%]": 89}
{"target": "Mitogen-activated protein kinase 8 (MAPK8, Homo sapiens, UniProt P45983)", "remaining binding [%]": 51}
{"target": "Muscle, skeletal receptor tyrosine-protein kinase (MUSK, Homo sapiens, UniProt O15146)", "remaining binding [%]": 100}
{"target": "Mitogen-activated protein kinase kinase kinase 20 (MAP3K20, Homo sapiens, UniProt Q9NYL2)", "remaining binding [%]": 80}
{"target": "Protein kinase C iota type (PRKCI, Homo sapiens, UniProt P41743)", "remaining binding [%]": 93}
{"target": "Phosphatidylinositol 4-phosphate 5-kinase type-1 gamma (PIP5K1C, Homo sapiens, UniProt O60331)", "remaining binding [%]": 100}
{"target": "Eukaryotic translation initiation factor 2-alpha kinase 1 (EIF2AK1, Homo sapiens, UniProt Q9BQI3)", "remaining binding [%]": 96}
{"target": "Serine/threonine-protein kinase 32B (STK32B, Homo sapiens, UniProt Q9NY57)", "remaining binding [%]": 100}
{"target": "Serine/threonine-protein kinase ULK2 (ULK2, Homo sapiens, UniProt Q8IYT8)", "remaining binding [%]": 100}
{"target": "TGF-beta receptor type-1 (TGFBR1, Homo sapiens, UniProt P36897)", "remaining binding [%]": 100}
{"data": "Sample 3", "SMILES": "CC(=O)N[C@@H](Cc1c[nH]c2ccccc12)C(=O)N[C@@H](CCC(=O)C=[N+]=[N-])C(=O)OC(C)C", "species": "C57BL/6 CES1-/- mice, EL4 tumour", "route": "subcutaneous", "dose": "0.3 mg/kg/day DON equivalent", "time": "5 days"}
{"technique": "UPLC-MS/MS", "item": "hydroxymethylpyrimidine", "cells": "EL4", "sample": "tumour", "setting": "normalised to tissue mass", "direction": "higher = more metabolite", "metabolite peak intensity": "4.26e+06 a.u. and 3.24e+06 a.u. and 5.54e+06 a.u. and 5.24e+06 a.u. and 5.35e+06 a.u. and 3.5e+06 a.u."}
{"technique": "UPLC-MS/MS metabolomics", "item": "glycerate", "sample": "EL4 tumour", "setting": "normalised to tissue mass", "metabolite peak intensity": "3.31e+08 a.u. and 3.56e+08 a.u. and 3.09e+08 a.u. and 3.43e+08 a.u. and 3.4e+08 a.u. and 3.54e+08 a.u."}
{"technique": "UPLC-MS/MS", "item": "itaconate", "cells": "EL4", "sample": "tumour", "setting": "normalised to tissue mass", "direction": "higher = more metabolite", "metabolite peak intensity": "5.81e+08 a.u. and 1.35e+09 a.u. and 5.44e+08 a.u. and 6.72e+08 a.u. and 1.26e+09 a.u. and 4.89e+08 a.u."}
{"technique": "LC-MS/MS metabolomics", "item": "3-methoxytyrosine", "sample": "EL4 tumour", "setting": "normalised to tissue mass", "direction": "higher = more metabolite", "metabolite peak intensity": "80800 a.u. and 189000 a.u. and 53300 a.u. and 182000 a.u. and 246000 a.u."}
{"technique": "UPLC-MS/MS", "item": "5-methyl-2'-deoxycytidine", "sample": "EL4 tumour", "metabolite peak intensity": "1.46e+06 a.u. and 2.23e+06 a.u. and 2.29e+06 a.u. and 2.5e+06 a.u. and 4.19e+06 a.u. and 1.54e+06 a.u."}
{"technique": "UPLC-MS/MS", "item": "5-methyluridine", "sample": "EL4 tumour", "metabolite peak intensity": "388000 a.u. and 323000 a.u. and 240000 a.u. and 298000 a.u. and 203000 a.u. and 205000 a.u."}
{"technique": "LC-MS/MS metabolomics", "item": "maltotriose", "sample": "EL4 tumour", "direction": "higher = more metabolite", "metabolite peak intensity": "1.37e+06 a.u. and 1.46e+07 a.u. and 2.74e+06 a.u. and 652000 a.u. and 4.16e+06 a.u. and 1.62e+06 a.u."}
{"technique": "UPLC-MS/MS metabolomics", "item": "N-acetylneuraminate", "sample": "EL4 tumour", "setting": "normalised to tissue mass", "direction": "higher = more metabolite", "metabolite peak intensity": "9.03e+06 a.u. and 6.24e+06 a.u. and 5.74e+06 a.u. and 7.52e+06 a.u. and 7.72e+06 a.u. and 9.7e+06 a.u."}
{"technique": "UPLC-MS/MS metabolomics", "item": "glucuronate", "sample": "EL4 tumour", "setting": "normalised to tissue mass", "metabolite peak intensity": "3.55e+06 a.u. and 4.87e+06 a.u. and 3.38e+06 a.u. and 3.77e+06 a.u. and 3.43e+06 a.u."}
{"technique": "LC-MS/MS metabolomics", "item": "2,3-dihydroxyisovalerate", "sample": "EL4 tumour", "setting": "normalised to tissue mass", "direction": "higher = more metabolite", "metabolite peak intensity": "223000 a.u. and 385000 a.u. and 441000 a.u. and 378000 a.u. and 351000 a.u. and 265000 a.u."}
{"data": "Sample 4", "species": "human", "sample": "microsomes or S9", "concentration": "2 µM", "time": "0.5 h"}
{"SMILES": "CCc1cc(CN2OCC(C)(C)C2=O)c(Cl)s1", "remaining compound [%]": 0.588}
{"SMILES": "O=C(NCCc1c[nH]c2ccccc12)c1c(OCC2CC2)cc(=O)n2c1CCOCC2", "remaining compound [%]": 50.8}
{"SMILES": "COc1cc(-c2c3oc4cc(O)ccc4c3nc3c2c(O)nn3C2CCCCC2)ccc1O", "remaining compound [%]": 58.1}
{"SMILES": "Cc1ccn(-c2ccc(NS(=O)(=O)c3ccc4c(c3)Cc3ccccc3-4)cc2)n1", "remaining compound [%]": 70.6}
{"SMILES": "CC(O)c1ccc(-c2ccc(CNn3nnnc3N)o2)cc1 (stereo not drawn)", "remaining compound [%]": "> 99.9"}
{"SMILES": "Cc1cc(C)n(C2CCN(C(=O)c3sc4ncn(C)c(=O)c4c3C)C2)n1 (stereo not drawn)", "remaining compound [%]": 24.9}
{"SMILES": "COc1cc(=O)n(C)cc1C(=O)Nc1ccccc1Br", "remaining compound [%]": 1.9}
{"SMILES": "COc1ccc(CN(C(=O)Cn2nnc3ccccc32)C(C(=O)NCCC(C)C)c2ccccc2)cc1 (stereo not drawn)", "remaining compound [%]": 59.4}
{"note": "Excerpt of the above (sample 2):"}
{"target": "Mitogen-activated protein kinase 8 (MAPK8, Homo sapiens, UniProt P45983)", "remaining binding [%]": 51}
{"target": "Protein kinase C iota type (PRKCI, Homo sapiens, UniProt P41743)", "remaining binding [%]": 93}
{"target": "Eukaryotic translation initiation factor 2-alpha kinase 1 (EIF2AK1, Homo sapiens, UniProt Q9BQI3)", "remaining binding [%]": 96}
{"target": "Serine/threonine-protein kinase PLK4 (PLK4, Homo sapiens, UniProt O00444)", "remaining binding [%]": 74}
{"target": "Mitogen-activated protein kinase kinase kinase 20 (MAP3K20, Homo sapiens, UniProt Q9NYL2)", "remaining binding [%]": 80}
{"target": "Insulin receptor (INSR, Homo sapiens, UniProt P06213)", "remaining binding [%]": 89}
